{"data": "Experimental data of several laboratories", "note": "Each numbered part is a random draw from the data of one study; scales do not carry over between parts. Changes are numbered by the printed parent chain."}
{"data": "Block 1", "target": "Histone acetyltransferase KAT6A, winged helix 1, GST fusion (KAT6A, Homo sapiens, UniProt Q92794, residues 1-85)", "technique": "protein binding microarray", "molecule type": "double-stranded DNA, one strand shown", "sample": "in vitro", "tested at": "not given", "setting": "8-mer, flanks averaged, mean of 2 arrays, mostly near background", "reference": "not given", "reading": "higher = stronger binding", "Construct (chain)": "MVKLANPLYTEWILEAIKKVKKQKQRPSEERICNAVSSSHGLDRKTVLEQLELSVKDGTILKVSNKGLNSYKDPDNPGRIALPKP"}
{"Oligonucleotide": "AGCGCAAT", "E-score": 0.218}
{"Oligonucleotide": "GCTTCAAC", "E-score": 0.0473}
{"Oligonucleotide": "AAGTGTGG", "E-score": -0.261}
{"Oligonucleotide": "AGATGAGC", "E-score": -0.126}
{"Oligonucleotide": "ATGAGTTA", "E-score": -0.0799}
{"Oligonucleotide": "GGCAATCA", "E-score": -0.0642}
{"Oligonucleotide": "ATCACACA", "E-score": -0.351}
{"Oligonucleotide": "ACTATCAC", "E-score": -0.22}
{"Oligonucleotide": "AGCCTAAC", "E-score": 0.0799}
{"Oligonucleotide": "AGGCAGGA", "E-score": -0.228}
{"data": "Block 2", "target": "Hepatocyte nuclear factor 3-beta, forkhead domain (FOXA2, Homo sapiens, UniProt Q9Y261, residues 142-269)", "technique": "protein-binding microarray", "molecule type": "double-stranded DNA, one strand shown", "sample": "in vitro", "tested at": "not given", "setting": "k-mer, scored over probes, only values ≥0.25", "reading": "higher = stronger binding", "Residues (chain)": "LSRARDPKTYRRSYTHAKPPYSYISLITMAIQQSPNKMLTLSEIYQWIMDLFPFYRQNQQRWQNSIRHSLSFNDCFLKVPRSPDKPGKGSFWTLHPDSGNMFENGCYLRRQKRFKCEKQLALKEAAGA"}
{"Oligonucleotide": "ATGTGTTG", "E-score": 0.305}
{"Oligonucleotide": "ATATATGG", "E-score": 0.402}
{"Oligonucleotide": "CGTGGTAA", "E-score": 0.28}
{"Oligonucleotide": "ATGGATAA", "E-score": 0.254}
{"Oligonucleotide": "AATCATAT", "E-score": 0.325}
{"Oligonucleotide": "ATAAACAC", "E-score": 0.269}
{"Oligonucleotide": "CAACACAA", "E-score": 0.28}
{"Oligonucleotide": "GTGTATCA", "E-score": 0.321}
{"Oligonucleotide": "AACATATG", "E-score": 0.341}
{"data": "Block 3", "target": "CCNA2, cyclin fold, Cln2 fusion (human)", "technique": "yeast growth competition, sequencing", "sample": "yeast", "setting": "weak parent motif", "reference": "not given", "reading": "higher = stronger binding", "starting sequence": "SLBP docking peptide (human); ARYKRKLLINDFG"}
{"Change": "D11Q", "normalised enrichment score": 1.45}
{"Change": "N10W", "normalised enrichment score": 2.68}
{"Change": "G13T", "normalised enrichment score": 1.28}
{"Change": "A1E", "normalised enrichment score": 0.259}
{"Change": "I9T", "normalised enrichment score": 0.841}
{"Change": "I9C", "normalised enrichment score": 1.51}
{"Change": "R2N", "normalised enrichment score": 1.4}
{"Change": "R5C", "normalised enrichment score": 2.04}
{"data": "Further values, each from its own experiment"}
{"Substance": "PhoQ, residues 284 288 289 292 302 303 SLANIV", "target": "PhoP, residues 12 14 15 18 19 GHCSL (Escherichia coli, UniProt P23836)", "test": "Sort-seq, item: YFP reporter", "test system": "E. coli", "conditions": "PhoQ-PhoP variant library, together with: 10 µM Mg2+", "scale": "reference: high Mg2+ state, higher = stronger signaling", "measurement": "fold induction", "value": 17.5}
{"note": "For quick reference, copied from above (block 3):"}
{"Change": "N10W", "normalised enrichment score": 2.68}
{"Change": "G13T", "normalised enrichment score": 1.28}
{"Change": "A1E", "normalised enrichment score": 0.259}
{"Change": "I9T", "normalised enrichment score": 0.841}
